Experimental data of several laboratories.
Each numbered part is a random draw from the data of one study; scales do not carry over between parts. Changes are numbered by the printed parent chain.

Block 1
Target: Interferon regulatory factor 3, full length, phosphomimetic (IRF3, Homo sapiens, UniProt Q14653, residues 1-427, S386D/S396D/S398D/S402D/T404D/S405D)
Chain of UniProt Q14653 (whole entry, unmodified, looked up): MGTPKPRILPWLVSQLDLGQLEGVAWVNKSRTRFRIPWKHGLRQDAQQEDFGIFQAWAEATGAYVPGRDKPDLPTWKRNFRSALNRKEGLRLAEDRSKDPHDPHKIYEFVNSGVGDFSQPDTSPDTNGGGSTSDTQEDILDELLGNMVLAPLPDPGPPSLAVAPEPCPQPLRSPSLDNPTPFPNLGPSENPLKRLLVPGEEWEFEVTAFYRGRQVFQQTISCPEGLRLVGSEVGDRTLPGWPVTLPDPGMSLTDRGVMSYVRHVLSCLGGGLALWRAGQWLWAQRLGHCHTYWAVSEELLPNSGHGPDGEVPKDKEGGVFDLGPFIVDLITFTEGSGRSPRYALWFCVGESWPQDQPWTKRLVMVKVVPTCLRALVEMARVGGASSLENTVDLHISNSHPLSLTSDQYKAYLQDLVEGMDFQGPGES
Method: protein-binding microarray
Molecule type: double-stranded DNA, one strand shown
Matrix: in vitro
Concentration: 2540 nM top
Notes: 60-bp whole probe
With: salmon DNA 0.4 mg/ml
Relative to: random background probes
Reading: higher = stronger binding
Constant ends, left off below: GCCTAGCAC … GTCTTGATTCGCTTGACGCTGCTG
Strand | fitted relative affinity
GACGGACTGGACTATCAGGACGTGCTA | -0.343 z-score
GACGAACTGAGTCTAGAGACGTGCTAG | -0.345 z-score
TTCGGACTGGGGTTTCGGTTAGTGCTA | 2.36 z-score
TCAGCATTGCTTCTATAACTGTGCTAG | -0.29 z-score
GACAGTCTCCTTATCCTGACGTGCTAG | 3.46 z-score
TTAGTTTTCGGGTTTCGATTAGTGCTA | 3.97 z-score
GGCGGTTTCGGTATCGGGACGTGCTAG | 8.16 z-score
CTGTCTGAGGACACCCTGGCGTGCTAG | 0.393 z-score
TCACGTCTGAGCTCCGTACTGTGCTAG | -0.39 z-score
TCATGTCTCAGAGTCCTACTGTGCTAG | 0.153 z-score
TTTGCTTTCCTTTATGTACTGTGCTAG | 5.44 z-score
TTAGAACTGAATCTCGATTAGTGCTAG | 0.122 z-score

Block 2
Target: Sal-like protein 4, full length isoform A (SALL4, Homo sapiens, UniProt Q9UJQ4, residues 1-1053)
Chain of UniProt Q9UJQ4 (whole entry, looked up): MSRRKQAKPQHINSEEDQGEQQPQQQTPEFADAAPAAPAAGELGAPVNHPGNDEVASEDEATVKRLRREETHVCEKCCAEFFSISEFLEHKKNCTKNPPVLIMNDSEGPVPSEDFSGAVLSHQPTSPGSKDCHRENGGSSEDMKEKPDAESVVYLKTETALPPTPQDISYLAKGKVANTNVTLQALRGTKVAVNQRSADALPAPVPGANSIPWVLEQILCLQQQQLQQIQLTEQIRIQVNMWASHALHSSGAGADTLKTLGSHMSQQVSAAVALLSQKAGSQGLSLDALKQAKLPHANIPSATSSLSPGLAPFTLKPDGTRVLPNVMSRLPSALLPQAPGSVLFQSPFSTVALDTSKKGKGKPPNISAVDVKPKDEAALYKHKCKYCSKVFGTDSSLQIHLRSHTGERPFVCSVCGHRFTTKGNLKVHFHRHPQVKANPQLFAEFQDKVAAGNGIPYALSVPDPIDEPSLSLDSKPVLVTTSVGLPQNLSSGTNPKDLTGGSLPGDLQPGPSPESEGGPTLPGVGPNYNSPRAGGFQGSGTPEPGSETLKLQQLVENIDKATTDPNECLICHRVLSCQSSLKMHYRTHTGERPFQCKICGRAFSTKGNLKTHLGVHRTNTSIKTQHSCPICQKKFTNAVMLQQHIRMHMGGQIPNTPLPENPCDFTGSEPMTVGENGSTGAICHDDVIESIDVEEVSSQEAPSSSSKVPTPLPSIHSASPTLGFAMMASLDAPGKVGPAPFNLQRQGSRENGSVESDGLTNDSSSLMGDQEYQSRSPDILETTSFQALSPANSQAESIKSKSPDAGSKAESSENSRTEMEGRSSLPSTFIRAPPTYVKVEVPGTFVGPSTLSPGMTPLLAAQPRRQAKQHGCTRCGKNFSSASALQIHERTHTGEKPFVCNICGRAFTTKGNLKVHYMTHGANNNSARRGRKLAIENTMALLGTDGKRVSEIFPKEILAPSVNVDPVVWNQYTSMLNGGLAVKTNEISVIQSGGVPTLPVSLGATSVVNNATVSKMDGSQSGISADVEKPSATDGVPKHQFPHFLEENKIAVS
Method: universal PBM
Molecule type: double-stranded DNA, one strand shown
Matrix: in vitro
Concentration: 600 nM
Notes: 8-mer, flanks averaged, mean of replicates
Reading: higher = stronger binding
Strand | E-score
GCTCTCCC | -0.166
AGTAGTGG | -0.0428
GAACCGCA | -0.194
AGAGCTTG | -0.0723
GAATAATA | 0.379
CACAAACA | 0.219
AACTATTG | 0.331
CCTAACGA | 0.0889
ACCAAGAG | -0.128
ATTTTCGC | 0.193
AAGCCCCG | -0.277
AGAGCTCC | -0.339
TACCTCCA | 3.5e-05
ATCTGGAC | -0.0605
ATGATAGA | 0.146
ACTAGGAA | 0.0462
AATAGCCA | 0.189
CTAGGTTC | -0.266
AGTTGAAC | -0.0504
AAGGCTTA | 0.0996
ATAGGGGA | 0.0633
ACCAATCG | 0.0762
AGTAGACC | -0.0831

Block 3
Target: CCND3, cyclin fold, Cln2 fusion (human)
Method: yeast growth competition, sequencing
Matrix: yeast
Notes: weak parent motif
Relative to: not given
Reading: higher = stronger binding
Starting sequence: RB1 docking peptide (human); PKPLKKLRFDIEG
Variant | normalised enrichment score
PKPLKKLRRDIEG [F9R] | 0.0295
PKPLKKLRFDEEG [I11E] | 0.163
PKPLKKLRKDIEG [F9K] | 0.144
PKPLKKLRFDSEG [I11S] | 0.183
PWPLKKLRFDIEG [K2W] | 0.0735
PKPLKKLRFMIEG [D10M] | 0.257
PKPLKKQRFDIEG [L7Q] | 0.0415
PKPLKKLRSDIEG [F9S] | 0.0178
PKPLKKLGFDIEG [R8G] | 0.104
KKPLKKLRFDIEG [P1K] | 0.0784
PKPLKKLRFDIEC [G13C] | 0.147
PKPLNKLRFDIEG [K5N] | 0.0937
PKPLKKPRFDIEG [L7P] | 0.115
PKPFKKLRFDIEG [L4F] | 0.171
PKYLKKLRFDIEG [P3Y] | 0.0883
PKPLKKLRFDIKG [E12K] | -0.0276
PKPLKKLRFDVEG [I11V] | 0.0979
SKPLKKLRFDIEG [P1S] | 0.0594
PKPLKKLRFDIFG [E12F] | 0.097
PKPLKKLVFDIEG [R8V] | 0.124
PKSLKKLRFDIEG [P3S] | 0.197
PKPHKKLRFDIEG [L4H] | 0.158
PKPLKMLRFDIEG [K6M] | 0.131
PKPLKKLRFFIEG [D10F] | 0.14
PKPLKKLRFDIEE [G13E] | 0.102

Block 4
Target: ABI1, truncated, D143A, DHFR fusion (Arabidopsis thaliana)
Method: DHFR PCA, deep sequencing
Matrix: yeast
Notes: methotrexate growth selection, single substitutions
With: (+)-ABA 0 µM
Relative to: wild-type fitted maximum
Reading: higher = stronger binding
Starting sequence: PYL1, truncated, DHFR fusion (Arabidopsis thaliana); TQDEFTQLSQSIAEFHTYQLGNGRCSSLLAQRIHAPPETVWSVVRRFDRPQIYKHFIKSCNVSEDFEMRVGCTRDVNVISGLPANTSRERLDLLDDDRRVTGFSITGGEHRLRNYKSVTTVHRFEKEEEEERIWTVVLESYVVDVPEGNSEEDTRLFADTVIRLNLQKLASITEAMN
Variant | relative binding score [%]
Q7Y | 24.1
I105N | -1.12
D159M | -13.2
Q31P | -4.21
D97N | 27.3
T173V | 9.11
E152V | 5.11
Y115I | 0.373
F66S | -0.279
W41G | -0.771
I12T | 2.45
E147N | 3.49
H34C | 32.1
A35K | -1.98
R69M | 7.06
R46I | 0.309
C72R | 1.01
V145P | -13.6
